Experimental data gathered from unrelated publications.
Numbered parts are unrelated; each lists some results of a single study.
Sequence of UniProt P51817 (whole entry, looked up): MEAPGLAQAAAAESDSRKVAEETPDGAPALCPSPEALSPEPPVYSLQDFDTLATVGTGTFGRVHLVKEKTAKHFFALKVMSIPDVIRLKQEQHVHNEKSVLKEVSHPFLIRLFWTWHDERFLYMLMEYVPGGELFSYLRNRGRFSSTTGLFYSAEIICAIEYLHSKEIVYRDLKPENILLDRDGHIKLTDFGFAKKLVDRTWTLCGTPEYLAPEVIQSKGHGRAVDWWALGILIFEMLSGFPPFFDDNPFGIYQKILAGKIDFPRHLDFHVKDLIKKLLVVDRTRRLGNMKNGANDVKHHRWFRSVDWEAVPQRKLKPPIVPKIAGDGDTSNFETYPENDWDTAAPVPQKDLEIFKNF

Series 1
Cell line: A-375
Concentration: 100 µM
Time: 36 h
Measurement: viability
C[C@H]1CC[C@@]2(O)C(C)(C)[C@@H]3CC[C@@]2(C)[C@H]1C3: 0.709%
NC(=O)c1cccnc1: 101%
N=C(N/N=C/c1ccc(Cl)cc1)N/N=C/c1ccc(Cl)cc1: 2.74%
NC(=O)N1c2ccccc2CC(=O)c2ccccc21: 40.9%
COc1cc2ccc(=O)oc2c(O)c1O: 98.7%

Series 2
Cell line: mouse MPNST tumor cells
Method: high-content nuclear imaging
Refers to: cell number
Concentration: 10 µM
Time: 12 h
Setting: mean of 2 replicates
Reference: plate mean
Reading: higher = more cells
Measurement: nuclei count
CCS(=O)(=O)c1ncc(Cl)c(C(=O)N(Cc2ccc(Cl)cc2)Cc2ccco2)n1: -5.32 z-score
O=C(COCC(=O)Nc1ccc(Cl)cc1C(=O)O)Nc1cccc(-c2ccoc2)c1: 2.35 z-score
CC(C)Oc1ccc(Cc2ccc(NC3=NCCN3)cc2)cc1: -3.63 z-score
O=C1[C@@H]2[C@H]3CC[C@H](C3)[C@@H]2C(=O)N1CCCCN1CCN(c2ncccn2)CC1: -0.17 z-score
CN1CC[C@@H](NC(=O)Nc2ccc(C#N)cc2)C[C@@H]1c1nc2ccccc2[nH]1: 3.57 z-score

Series 3
Host: mouse
Sample: microsomes or S9
Concentration: 2 µM
Time: 0.5 h
Measurement: remaining compound
COc1cc2c(Nc3ccc(Br)c(C)c3)ncnc2cc1OCC1CN(C)CCO1 (stereo not shown): 37.8%
CCOC(=O)c1cc2cc(NC(=N)N)ccc2s1: 3.15%
Cc1ccc2c(c1)c(N1CCCC1=O)c(C(=O)NCC1CCCO1)n2C (stereo not shown): 78.4%
OC1CCOc2c(NCCc3ccccc3F)cccc21 (stereo not shown): 6%
OC1(Cc2nc(-c3cnccn3)no2)CCCCC1: 55.4%

Series 4
Target: 5-hydroxytryptamine receptor 1E (HTR1E, Homo sapiens, UniProt P28566)
Sequence of UniProt P28566 (whole entry, looked up): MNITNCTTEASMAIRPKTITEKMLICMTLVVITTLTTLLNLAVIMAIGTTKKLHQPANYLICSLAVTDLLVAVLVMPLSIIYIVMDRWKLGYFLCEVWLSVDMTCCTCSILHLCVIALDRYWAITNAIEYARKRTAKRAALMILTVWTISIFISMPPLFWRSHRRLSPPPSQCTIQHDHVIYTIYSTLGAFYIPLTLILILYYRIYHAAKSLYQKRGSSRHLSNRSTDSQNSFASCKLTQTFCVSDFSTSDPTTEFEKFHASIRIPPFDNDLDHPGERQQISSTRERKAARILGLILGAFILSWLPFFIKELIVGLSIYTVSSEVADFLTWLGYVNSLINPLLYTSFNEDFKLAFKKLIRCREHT
Read-out: cell-free assay
Concentration: 10 µM
Measurement: inhibition
CCC(F)(F)c1cc(N2CCC(S(C)(=O)=O)CC2)nc2sc(C(N)=O)c(N)c12: 1.69%
CCC(=NO)C(C)=Cc1ccc(F)c(C)c1: 4.47%
C[C@H](c1ccnc(Nc2nc3ccc(-c4cc(N(C)C)ncn4)cc3[nH]2)c1)N1CCN(C(=O)CC(F)(F)F)CC1: 13.6%
O=C(NNS(=O)(=O)c1ccccc1)c1cc(-c2ccnnc2)ccc1F: 13.1%
CN1CCN(c2ccnc(NCCc3ccccc3)n2)CC1: 19.5%
c1ccc(C2CCN(c3cnc4c(N5CCOCC5)nccn34)CC2)cc1: 5.84%
Cc1ccccc1Oc1cc(-n2c(=O)cc(C(F)(F)F)[nH]c2=O)c2ccccc2c1Cl: 4.31%
CN1C(=O)[C@@H](N2CCc3c(nn(Cc4ccccc4)c3Br)C2=O)COc2ccccc21: -15%
CCCOc1ccc([C@H]2[C@H](C(=O)O)[C@@H](c3ccc4c(c3)OCO4)CN2CC(=O)Nc2c(CC)cccc2CC)cc1: -15.3%
CNC(=O)Nc1ccc2c(c1)[C@]1(CC2)OC(=O)N(CC(=O)N(Cc2ccc(F)cc2)[C@@H](C)C(F)(F)F)C1=O: 0.33%
CN(C)[C@H]1CCN(c2cc(-c3ccccc3)nc3ccnn23)C1: -16.4%
Cc1cc(C)c(-n2ccn3nc(-c4cccnc4)cc23)cc1NC(=O)c1cc(C#N)cc(S(F)(F)(F)(F)F)c1: 3.57%
O[C@]1(C(F)(F)F)CCCC[C@H]1Nc1ccc(F)cc1: -10.4%
Nc1c(C(=O)NCc2ccc(C(=O)NCCCC3CCCCC3)cc2)cnn1-c1ccccc1: 1%
Nc1nc(NCc2ccccc2)nc(-c2ccccc2CO)n1: -20%
O=C(Nc1cccnn1)N1CC(CC=Cc2cncc(Oc3ccc(C(F)(F)F)cn3)n2)C1: 0.84%
CCOc1ccc(S(=O)(=O)Nc2ccc(Cl)cc2C#Cc2cnc(C(=O)O)cc2OC)c2ncccc12: -51.7%
CC(=O)Nc1ncc(CN2CCC[C@H](Cc3cc(C)nc(C)c3)C2)s1: -11%

Series 5
SMILES: CC(C)n1cnc(-c2ccc(F)cc2)c1-c1ncc(C(=O)Nc2ccc(N3CCN(C)CC3)cc2)[nH]1
Method: phase 2a trial
Host: idiopathic pulmonary fibrosis patients
Measurement: patients with bronchitis
60 mg once daily, grade 3 emergent event: 0%
30 mg once daily, grade 3 emergent event: 0%
all arms pooled, grade 5 emergent event: 0%

Other studies, line by line
C[C@H]1CC[C@H](n2c3cnccc3c3cnc(Nc4ccc5c(n4)CCN(C(=O)CO)C5)nc32)CC1
receptor occupancy (cAMP-dependent protein kinase catalytic subunit PRKX (PRKX, Homo sapiens, UniProt P51817); 1 µM): -16.1%
